# Results gathered from unrelated publications.
# ache: Acetylcholinesterase (ache, Electrophorus electricus, UniProt O42275)
Structure (SMILES),target,assay,setting,inhibition [%]
CS(C)(=O)=Nc1ccc(-c2ccc(-c3nc4cc(O[C@@H]5CO[C@H]6[C@@H]5OC[C@H]6O)[nH]c4cc3F)cc2)cc1,"MAPK10 (Homo sapiens, UniProt P53779)","enzyme activity, inhibitor",10 µM,12
CN(C)[C@H]1C[C@@]23CC[C@@]4(O2)C(=CC[C@]2(C)[C@@H](c5ccc6ccncc6c5)CC[C@H]24)C=C3[C@@H](O)[C@@H]1O,"CDK12 (Homo sapiens, UniProt Q9NYV4)","ATP probe labelling, inhibitor, KiNativ profiling",1 µM,-1.2
Cc1cc(Nc2nc(C[C@@]3(C(=O)O)CCN(Cc4cccc(Cl)c4F)[C@H](C)C3)cc(C)c2F)[nH]n1,"ADORA2A (Homo sapiens, UniProt P29274)",inhibitor,10 µM,-8.84
CNC(=O)c1cccc(-c2ccc3ncc(-c4cccc(C(=O)NCCN(C)C)c4)n3n2)c1,ache,"enzyme activity, inhibitor, Ellman",5 µM,65.3
O=C(NC1CCN(c2ncnc3[nH]cnc23)CC1)c1cccc(NS(=O)(=O)c2ccc(C(F)(F)F)cc2)c1,"Replicase polyprotein 1ab, nsp14 (Human coronavirus OC43, UniProt P0C6X6)",enzyme activity,12.5 µM,78.8
C[C@H](NCc1ccc(-c2ccc(C(F)(F)F)cc2)cc1)C(N)=O,"ABCC8 (Homo sapiens, UniProt Q09428)","radioligand binding, SafetyScreen panel","1 µM, with: 5.0 nM [3H]Glyburide",-7
C1COCCN1,ache,"enzyme activity, inhibitor, Ellman",20 µM,41.1
CN(/N=C/c1ccccc1C(=O)O)c1nc(-c2ccccc2Cl)cs1,FYN isoform b,enzyme activity,1 µM,-9.24
BP(=O)(OC[C@H]1O[C@@H](n2c[n+](C)c3c(O)nc(N)nc32)[C@H](O)[C@@H]1O)OP(=O)([O-])OP(=O)(O)O (stereo partly drawn),"mRNA decapping complex subunit 2, with Dcp1 (dcp2, Schizosaccharomyces pombe, UniProt O13828)",,"200 µM, 0.5 h",30.3
CCOC(=O)[C@](CC)(CCCSCCOCCOCCNC(=O)c1ccc(-c2c3ccc(=N)c(S(=O)(=O)O)c-3oc3c(S(=O)(=O)O)c(N)ccc23)c(C(=O)O)c1)NC(=O)c1ccc(C2CC2)c(Cc2ccc(F)cc2)n1,androgen receptor (human),"specific binding, agonist radioligand binding",10 µM,1
CC(C)[C@H]1NC(=O)C[C@H]2/C=C/CCSSC[C@@H](NC1=O)C(=O)N[C@H](Cc1cccc3ccccc13)C(=O)NCC(=O)O2,"PTK6 (Homo sapiens, UniProt Q13882)","enzyme activity, inhibitor",10 µM,10.2
CN[C@@H]1[C@H](O)[C@H](NC)[C@H]2O[C@]3(O)[C@H](O[C@@H]2[C@H]1O)O[C@H](C)C[C@H]3NC(=O)Cc1cc(Cl)ccn1,"Estrogen receptor (ESR1, Homo sapiens, UniProt P03372)","ligand displacement, radioligand",10 µM,4

# Some of these lines once more:
Structure (SMILES),target,assay,setting,inhibition [%]
C1COCCN1,ache,"enzyme activity, inhibitor, Ellman",20 µM,41.1
CN[C@@H]1[C@H](O)[C@H](NC)[C@H]2O[C@]3(O)[C@H](O[C@@H]2[C@H]1O)O[C@H](C)C[C@H]3NC(=O)Cc1cc(Cl)ccn1,"Estrogen receptor (ESR1, Homo sapiens, UniProt P03372)","ligand displacement, radioligand",10 µM,4
